Measurements gathered from unrelated publications.
± marks the error that the study gave.

SMILES | organism | test | system | conditions | EC50
Nc1ncnc2c1c(Cl)cn2[C@@H]1O[C@H](CO)[C@@H](O)[C@H]1O | Trypanosoma vivax | parasite growth, resazurin |  | 24 h | 0.53 µM
CNC(=O)c1ccc(-c2cnn3ccc(C(=O)N(C)c4ccc(C#N)cn4)cc23)cc1 | Cryptosporidium parvum | cytopathic effect | HCT-8 |  | 0.113 ± 0.072 µM
CCCCCCCCCC(=O)OCC1OC(n2cc(C)c(=O)[nH]c2=O)CC1N(C)C (stereo not drawn) | feline herpesvirus | viral replication | CRFK |  | > 0.05 µM
CNC(=O)c1ccc(-c2cnn3ccc(C(=O)Nc4ccc(C#N)cn4)cc23)cc1 | Cryptosporidium parvum | cytopathic effect | HCT-8 |  | > 20 µM
CC(=O)CCC1C(=O)NC(C(C)C)C(=O)NC(Cc2cccc(O)c2)C(=O)N2CCCC(N2)C(=O)OC(C(C)=CC=CC(=O)N2CCCCO2)CC=CC=CC(O)C(C)C1O (stereo not drawn) | hepatitis C virus genotype 1b | refers to: HCV RNA | Huh-7 replicon | 72 h | 0.058 ± 0.005 µM
O=C1/C(=N\NC(=S)NN=Cc2cccs2)c2ccccc2N1Cc1ccccc1 | feline herpesvirus | viral cytopathogenicity | CRFK |  | > 20 µM
CNC(=O)c1ccc(-c2cnc3cnc(C(=O)N(C)c4ccc(Cl)cc4)cn23)cc1 | Cryptosporidium parvum | cytopathic effect | HCT-8 |  | 0.096 ± 0.044 µM
CC(=Nn1c(-c2ccccc2)nc2ccccc2c1=O)c1ccc(Cl)cc1 | feline herpesvirus | viral replication, MTS | CRFK |  | > 100 µg/mL
COc1ccccc1-c1n[nH]c2nc(N[C@H]3CC[C@H](NS(=O)(=O)CC(C)C)CC3)ncc12 | Leishmania donovani | parasite growth | mouse | intracellular, amastigote | 0.0316 µM
CCOc1cccc(NC(=O)CSc2cn(C(=O)OC(C)(C)C)c3ccccc23)c1 | human coronavirus NL63 | viral cytopathic effect, MTS | LLC-MK2 | 120 h | 12.5 µM
O=C(NCc1ccc(F)cc1F)c1cn(Cc2ccc(F)cc2)cc(O)c1=O | Human betaherpesvirus 5 | viral replication, inhibitor |  | 7 days | 0.86 µM
Cc1ccc(N2CC3CC(C2)N3C)cc1C(=O)NC1(c2ccc3c4c(cccc24)C(=O)N3C)CC1 | human coronavirus NL63 | viral replication |  |  | 0.0816 µM
CNC(=O)CNc1cnc2ccc(-c3ccc(OC)c(OC)c3)cc2n1 | Cryptosporidium parvum | cytopathic effect | HCT-8 |  | 11.8 ± 1.89 µM
COc1ccc(-c2cnc3c(C#Cc4cccnc4)snc3c2)cc1OC | dengue virus 2 | viral replication |  |  | 1.4 µM
CC(=O)CCC1C(=O)NC(C(C)C)C(=O)NC(Cc2cc(O)cc(F)c2)C(=O)N2CCCC(N2)C(=O)OC(C(C)=CC=CC(=O)N2CCCCO2)CC=CC=CC(O)C(C)C1O (stereo not drawn) | hepatitis C virus genotype 1b | luciferase | Huh-5-2 replicon | 4 days | 0.033 ± 0.01 µM
N#Cc1cccc(-c2ccccc2C(N)=O)c1 | Bunyamwera virus | minigenome activity | BSR-T7 |  | > 100 µM
COc1cn(Cc2ccc(F)cc2)cc(C(=O)NCc2ccc(F)cc2F)c1=O | Human betaherpesvirus 5 | viral replication, inhibitor |  | 7 days | > 50 µM
C[C@@H](O)[C@H](NC(=O)[C@@H]1CCCN1C(=O)[C@H](Cc1ccc(O)cc1)NC(=O)CNC(=O)[C@H](CCCNC(=N)N)NC(=O)CNC(=O)[C@H](CO)NC(=O)[C@H](Cc1c[nH]cn1)NC(=O)OCC1c2ccccc2-c2ccccc21)C(=O)N[C@@H](CO)C(=O)N1CCC[C@H]1C(=O)N[C@@H](Cc1c[nH]c2ccccc12)C(=O)N[C@@H](CO)C(=O)O | bacteriophage T1 | phage inactivation, plaque count |  | 3 h, 37 °C, 50% phages deactivated | > 200 µg/mL

Excerpt of the above:
SMILES | organism | test | system | conditions | EC50
CNC(=O)c1ccc(-c2cnn3ccc(C(=O)N(C)c4ccc(C#N)cn4)cc23)cc1 | Cryptosporidium parvum | cytopathic effect | HCT-8 |  | 0.113 ± 0.072 µM
CCCCCCCCCC(=O)OCC1OC(n2cc(C)c(=O)[nH]c2=O)CC1N(C)C (stereo not drawn) | feline herpesvirus | viral replication | CRFK |  | > 0.05 µM
